{"data": "Assay results from different studies", "target": "Mitogen-activated protein kinase kinase kinase kinase 3 (MAP4K3, Homo sapiens, UniProt Q8IVH8)", "note": "Each line is one published result; not all experiments were run side by side. Several values in a cell are separate wells, animals, samples, runs or records."}
{"SMILES": "COc1c(Cl)cccc1Nc1c(-c2ccncc2C#C[C@@]2(C)CCCN2C(=O)/C=C/CN(C)C)[nH]c2c1C(=O)NCC2", "test": "binding, competition with immobilised ligand", "conditions": "3 µM", "endpoint": "remaining binding", "result": "95%"}
{"SMILES": "CC(C)=CC1OC(C)(C)C2C=C3C(=O)C(Cl)=CC(O)C3C3C(O)C4OC4C(=O)C132 (stereo not drawn)", "test": "cell-free assay, competition with immobilised ligand", "conditions": "10 µM", "endpoint": "remaining binding", "result": "96%"}
{"SMILES": "Nc1ncc2c(n1)-c1c([nH]c3ccc(C4=CCOCC4)cc13)CCC2", "test": "binding, competition with immobilised ligand", "conditions": "1 µM", "endpoint": "remaining binding", "result": "100%"}
{"SMILES": "C=CC(=O)N1CCCC(n2c(=O)c3ncccc3n(Cc3ccc(Oc4ccccc4)cc3)c2=O)C1 (stereo not drawn)", "test": "cell-free assay, competition with immobilised ligand", "conditions": "1 µM", "endpoint": "remaining binding", "result": "94%"}
{"SMILES": "Cc1ccc(-c2c(/C=C(\\C#N)C(=O)NC(C)C)n(CCCO)c3ncnc(N)c23)cc1", "test": "cell-free assay, competition with immobilised ligand", "conditions": "1 µM", "endpoint": "remaining binding", "result": "100%"}
{"SMILES": "CS(=O)(=O)Nc1cccc(-c2csc3cnc(Nc4ccc(N5CCN(CCCCCOc6cccc7c6C(=O)N(C6CCC(=O)NC6=O)C7=O)CC5)cc4)nc23)c1 (stereo not drawn)", "test": "probe labelling, inhibitor, KiNativ chemoproteomics", "test system": "MOLT-4", "conditions": "1 µM", "endpoint": "inhibition", "result": "16.8%"}
{"SMILES": "CNC(=O)C1CCN(c2cc(C)c(F)cc2NC(=O)c2ccc(-c3cc(O)ccc3C)c(C)c2)CC1", "test": "binding, competition with immobilised ligand", "conditions": "1 µM", "endpoint": "remaining binding", "result": "96%"}
{"SMILES": "C=CC(=O)N1Cc2nc(-c3cc(-c4cc(Cl)cnc4Cl)c(F)cc3F)n(-c3ccncn3)c2C1", "test": "cell-free assay, inhibitor", "conditions": "1 µM", "endpoint": "inhibition", "result": "-4%"}
{"SMILES": "C=CC(=O)Nc1cc(-c2nn(C3CCN(CCNC(=O)[C@H](C)CCC45CC6CC(CC(C6)C4)C5)CC3)c3ncnc(N)c23)ccc1Oc1ccccc1", "test": "inhibitor, KiNativ profiling", "test system": "biochemical", "conditions": "2 µM", "endpoint": "inhibition", "result": "5.2%"}
{"SMILES": "CNC(=O)C[C@H](Cc1ccc(C#N)cc1)NC(=O)c1cc(-c2ccc(CN[C@H](C)c3ccc(C)cc3)o2)ccc1Cl", "test": "enzyme activity, inhibitor", "conditions": "1 µM", "endpoint": "activity vs control", "result": "102%"}
{"SMILES": "CNC1C[S+]2CC[S+]3CC[S+](C1)[Ru-4]321([N]=C=S)[n]2c3ccc(OC)cc3c3c4c(c5cc(F)c[n+]1c5c32)C(=O)NC4=O (stereo not drawn)", "test": "KinomeScan", "conditions": "0.1 µM", "how to read": "reference: untreated", "endpoint": "remaining binding", "result": "100%"}
{"SMILES": "C=CC(=O)N1CCc2ccc(-n3c(=O)ccc4cnc5ccc(-c6cnn(C)c6)cc5c43)cc21", "test": "KINOMEscan", "conditions": "1 µM", "how to read": "reference: DMSO control", "endpoint": "remaining binding", "result": "94%"}
{"SMILES": "Cc1cnc2nc1Nc1cccc(c1)COC/C=C/COCc1cc(ccc1OCCN1CCOCC1)N2", "conditions": "concentration not given", "endpoint": "percent of control", "result": "88%"}
{"SMILES": "COc1cc(Nc2nc(C)cc(-c3cnn4nc(OC)ccc34)n2)cc(C(F)(F)F)c1", "test": "inhibitor", "conditions": "1 µM", "how to read": "reference: control", "endpoint": "remaining activity", "result": "100%"}
{"SMILES": "N[C@H]1CC[C@H](Nc2nccc(-c3cccnc3Oc3ccc(NC(=O)NC4CC4)c4ccccc34)n2)CC1", "test": "kinobead competition pulldown", "test system": "HEK293/HCT116 lysate mixture", "conditions": "10 µM, 1 h, 4 °C", "how to read": "lower = stronger competition", "endpoint": "log2 LFQ intensity", "result": "25.9 and 25.8 and 26"}
{"SMILES": "COc1cc(Nc2nccc(-c3cnn4nc(OC)ccc34)n2)cc(C(F)(F)F)c1", "test": "binding, competition with immobilised ligand", "conditions": "1 µM", "endpoint": "remaining binding", "result": "98%"}
{"SMILES": "CCN1CCN(Cc2ccc(C(=O)Nc3ccc(C)c(NCc4cnc5[nH]ccc5c4OC)c3)cc2C(F)(F)F)CC1", "test": "binding, competition with immobilised ligand", "conditions": "1 µM", "endpoint": "remaining binding", "result": "33%"}
{"SMILES": "CCn1cc(C(=O)O)c(=O)c2c(N)c(F)c(NC3CCCCC3)cc21", "test": "kinase activity", "conditions": "0.1 µM, added: ATP at Km", "endpoint": "inhibition", "result": "-7.5%"}
{"SMILES": "CN1CCN(Cc2ccc(-c3ccc(CO[C@H]4CCC[C@@H]4NC(=O)c4cc(-c5cnn(C)c5)cnc4N)cc3)cc2)CC1", "test": "enzyme activity, inhibitor", "conditions": "0.1 µM", "endpoint": "inhibition", "result": "8%"}
{"SMILES": "O=C(Cc1ccc(OCc2ccccc2)cc1)NC1(C(=O)O)CCN(C(=O)c2ccc(-c3cccc(Cl)c3)cc2)CC1", "test": "enzyme activity, inhibitor", "conditions": "10 µM", "endpoint": "activity vs control", "result": "100%"}
{"SMILES": "CN1CC[C@@H](COc2cnc(C#N)cc2-c2ccn3nc(NC(=O)C4CC4)cc3c2)C1", "test": "enzyme activity, inhibitor", "conditions": "1 µM", "endpoint": "inhibition", "result": "11%"}
{"note": "Repeated from above:"}
{"SMILES": "COc1cc(Nc2nccc(-c3cnn4nc(OC)ccc34)n2)cc(C(F)(F)F)c1", "test": "binding, competition with immobilised ligand", "conditions": "1 µM", "endpoint": "remaining binding", "result": "98%"}
{"SMILES": "O=C(Cc1ccc(OCc2ccccc2)cc1)NC1(C(=O)O)CCN(C(=O)c2ccc(-c3cccc(Cl)c3)cc2)CC1", "test": "enzyme activity, inhibitor", "conditions": "10 µM", "endpoint": "activity vs control", "result": "100%"}
{"SMILES": "Cc1ccc(-c2c(/C=C(\\C#N)C(=O)NC(C)C)n(CCCO)c3ncnc(N)c23)cc1", "test": "cell-free assay, competition with immobilised ligand", "conditions": "1 µM", "endpoint": "remaining binding", "result": "100%"}
